Published values from different studies.
Numbered parts are unrelated; each lists some results of a single study.
Chain of UniProt Q8NEV4 (whole entry, looked up): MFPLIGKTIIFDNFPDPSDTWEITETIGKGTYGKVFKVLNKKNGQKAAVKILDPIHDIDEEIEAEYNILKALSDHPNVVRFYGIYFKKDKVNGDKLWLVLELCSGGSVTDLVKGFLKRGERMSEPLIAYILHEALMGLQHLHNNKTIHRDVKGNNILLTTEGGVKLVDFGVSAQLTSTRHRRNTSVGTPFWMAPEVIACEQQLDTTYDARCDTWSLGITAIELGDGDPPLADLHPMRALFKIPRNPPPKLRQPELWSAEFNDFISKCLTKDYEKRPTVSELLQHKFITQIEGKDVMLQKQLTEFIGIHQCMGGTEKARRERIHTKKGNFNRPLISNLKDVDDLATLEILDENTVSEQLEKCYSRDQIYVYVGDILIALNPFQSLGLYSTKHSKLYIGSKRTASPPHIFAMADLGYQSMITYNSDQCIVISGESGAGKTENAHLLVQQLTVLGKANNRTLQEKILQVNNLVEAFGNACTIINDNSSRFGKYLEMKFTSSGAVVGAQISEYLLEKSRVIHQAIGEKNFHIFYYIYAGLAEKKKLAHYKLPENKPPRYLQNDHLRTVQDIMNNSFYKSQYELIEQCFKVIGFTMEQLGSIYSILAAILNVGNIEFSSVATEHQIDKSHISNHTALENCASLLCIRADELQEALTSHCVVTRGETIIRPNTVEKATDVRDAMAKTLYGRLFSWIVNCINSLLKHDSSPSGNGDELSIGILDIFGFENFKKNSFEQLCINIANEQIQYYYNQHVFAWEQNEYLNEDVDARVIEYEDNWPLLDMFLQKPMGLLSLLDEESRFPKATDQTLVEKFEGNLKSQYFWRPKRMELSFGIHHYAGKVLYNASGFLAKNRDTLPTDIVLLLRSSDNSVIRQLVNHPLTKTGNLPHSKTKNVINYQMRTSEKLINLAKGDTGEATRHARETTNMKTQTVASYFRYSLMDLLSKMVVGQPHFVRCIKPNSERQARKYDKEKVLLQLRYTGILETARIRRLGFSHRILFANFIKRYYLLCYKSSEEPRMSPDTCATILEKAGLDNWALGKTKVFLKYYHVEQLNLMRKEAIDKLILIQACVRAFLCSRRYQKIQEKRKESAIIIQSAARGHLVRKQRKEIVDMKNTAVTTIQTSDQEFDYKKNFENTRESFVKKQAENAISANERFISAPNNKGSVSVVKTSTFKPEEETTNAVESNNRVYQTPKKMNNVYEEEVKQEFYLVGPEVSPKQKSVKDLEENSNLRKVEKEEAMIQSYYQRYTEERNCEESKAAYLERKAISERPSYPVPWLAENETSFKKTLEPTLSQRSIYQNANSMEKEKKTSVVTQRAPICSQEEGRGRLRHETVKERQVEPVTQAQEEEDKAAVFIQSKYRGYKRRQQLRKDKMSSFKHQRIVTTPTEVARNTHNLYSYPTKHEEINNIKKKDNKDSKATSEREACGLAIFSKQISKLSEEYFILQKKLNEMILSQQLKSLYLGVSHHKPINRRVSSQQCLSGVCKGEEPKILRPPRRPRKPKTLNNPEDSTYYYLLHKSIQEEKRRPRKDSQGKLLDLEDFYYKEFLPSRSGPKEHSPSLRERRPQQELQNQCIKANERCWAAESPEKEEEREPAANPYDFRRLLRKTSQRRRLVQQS
Chain of UniProt P51451 (whole entry, looked up): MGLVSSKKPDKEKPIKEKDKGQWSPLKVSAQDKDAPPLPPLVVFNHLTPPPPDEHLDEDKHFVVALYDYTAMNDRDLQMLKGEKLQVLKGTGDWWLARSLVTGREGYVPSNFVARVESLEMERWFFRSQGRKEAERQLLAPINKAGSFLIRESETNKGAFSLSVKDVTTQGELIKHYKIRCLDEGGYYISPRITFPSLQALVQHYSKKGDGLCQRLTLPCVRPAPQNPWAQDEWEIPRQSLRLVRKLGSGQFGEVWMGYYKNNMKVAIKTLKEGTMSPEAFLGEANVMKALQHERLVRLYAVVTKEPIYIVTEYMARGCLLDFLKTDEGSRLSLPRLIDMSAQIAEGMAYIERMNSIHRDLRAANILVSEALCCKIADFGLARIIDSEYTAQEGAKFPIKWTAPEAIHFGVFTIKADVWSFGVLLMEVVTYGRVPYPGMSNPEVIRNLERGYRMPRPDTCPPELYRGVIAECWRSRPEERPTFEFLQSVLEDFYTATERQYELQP
Chain of UniProt Q14164 (whole entry, looked up): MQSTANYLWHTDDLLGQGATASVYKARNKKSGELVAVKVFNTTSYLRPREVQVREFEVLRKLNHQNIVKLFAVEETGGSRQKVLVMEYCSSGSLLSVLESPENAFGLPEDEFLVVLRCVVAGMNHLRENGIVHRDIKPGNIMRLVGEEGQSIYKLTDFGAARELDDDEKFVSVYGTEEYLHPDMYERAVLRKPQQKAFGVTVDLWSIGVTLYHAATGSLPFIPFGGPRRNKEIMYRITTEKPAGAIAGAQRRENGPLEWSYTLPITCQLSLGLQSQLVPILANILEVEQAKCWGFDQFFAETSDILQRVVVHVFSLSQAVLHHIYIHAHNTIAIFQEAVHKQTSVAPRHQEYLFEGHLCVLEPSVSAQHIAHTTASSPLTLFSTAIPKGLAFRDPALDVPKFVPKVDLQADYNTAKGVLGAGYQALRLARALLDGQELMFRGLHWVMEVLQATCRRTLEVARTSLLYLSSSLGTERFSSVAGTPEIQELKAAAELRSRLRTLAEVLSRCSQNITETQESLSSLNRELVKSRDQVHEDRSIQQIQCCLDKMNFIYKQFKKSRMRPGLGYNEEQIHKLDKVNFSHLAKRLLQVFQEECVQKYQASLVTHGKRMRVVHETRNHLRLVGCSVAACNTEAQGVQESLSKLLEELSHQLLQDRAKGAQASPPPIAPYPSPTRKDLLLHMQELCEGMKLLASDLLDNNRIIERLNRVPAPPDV
Chain of UniProt Q16566 (whole entry, looked up): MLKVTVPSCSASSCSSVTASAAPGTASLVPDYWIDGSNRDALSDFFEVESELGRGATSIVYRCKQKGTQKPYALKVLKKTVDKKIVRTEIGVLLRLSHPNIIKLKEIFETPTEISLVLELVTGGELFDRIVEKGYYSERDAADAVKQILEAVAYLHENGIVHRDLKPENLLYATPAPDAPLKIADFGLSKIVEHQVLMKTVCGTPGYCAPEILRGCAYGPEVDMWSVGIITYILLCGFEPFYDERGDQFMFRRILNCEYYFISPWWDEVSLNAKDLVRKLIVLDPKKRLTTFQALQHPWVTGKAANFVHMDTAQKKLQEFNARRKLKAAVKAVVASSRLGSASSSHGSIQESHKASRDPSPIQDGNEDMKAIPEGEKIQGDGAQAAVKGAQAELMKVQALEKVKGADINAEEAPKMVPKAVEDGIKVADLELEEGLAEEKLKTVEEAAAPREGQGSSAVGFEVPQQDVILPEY
Chain of UniProt P07333 (whole entry, looked up): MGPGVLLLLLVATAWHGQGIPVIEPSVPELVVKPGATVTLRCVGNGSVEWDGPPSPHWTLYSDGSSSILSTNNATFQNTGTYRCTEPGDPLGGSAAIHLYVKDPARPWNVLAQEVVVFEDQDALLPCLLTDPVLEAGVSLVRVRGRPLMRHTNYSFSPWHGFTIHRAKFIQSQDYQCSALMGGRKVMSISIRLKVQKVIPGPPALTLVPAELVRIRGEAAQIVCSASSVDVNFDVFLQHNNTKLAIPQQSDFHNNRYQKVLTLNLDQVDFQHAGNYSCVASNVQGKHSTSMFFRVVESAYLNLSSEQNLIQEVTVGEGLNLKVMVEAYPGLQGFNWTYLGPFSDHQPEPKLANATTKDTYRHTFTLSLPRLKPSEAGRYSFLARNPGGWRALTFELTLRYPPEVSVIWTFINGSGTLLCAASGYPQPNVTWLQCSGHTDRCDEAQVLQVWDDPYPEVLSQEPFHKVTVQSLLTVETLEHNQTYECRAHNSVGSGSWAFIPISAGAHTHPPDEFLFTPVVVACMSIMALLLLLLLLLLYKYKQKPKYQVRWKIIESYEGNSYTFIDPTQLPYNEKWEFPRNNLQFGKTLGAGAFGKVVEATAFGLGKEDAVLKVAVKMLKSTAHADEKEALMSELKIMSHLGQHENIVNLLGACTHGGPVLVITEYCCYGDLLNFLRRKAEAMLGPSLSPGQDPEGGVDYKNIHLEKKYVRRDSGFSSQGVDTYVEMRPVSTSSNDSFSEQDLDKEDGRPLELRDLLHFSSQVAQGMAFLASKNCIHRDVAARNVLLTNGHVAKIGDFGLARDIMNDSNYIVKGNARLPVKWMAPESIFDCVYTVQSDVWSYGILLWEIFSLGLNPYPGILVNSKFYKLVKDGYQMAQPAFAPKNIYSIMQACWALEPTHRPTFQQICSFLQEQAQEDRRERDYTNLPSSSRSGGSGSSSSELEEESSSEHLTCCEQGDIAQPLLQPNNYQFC

Block 1 — observed: enzyme activity; action: inhibitor; tested at: 0.5 µM; baseline: control; measurement: remaining activity
Target: Dual specificity protein kinase CLK2 (CLK2, Homo sapiens, UniProt P49760)
Chain of UniProt P49760 (whole entry, looked up): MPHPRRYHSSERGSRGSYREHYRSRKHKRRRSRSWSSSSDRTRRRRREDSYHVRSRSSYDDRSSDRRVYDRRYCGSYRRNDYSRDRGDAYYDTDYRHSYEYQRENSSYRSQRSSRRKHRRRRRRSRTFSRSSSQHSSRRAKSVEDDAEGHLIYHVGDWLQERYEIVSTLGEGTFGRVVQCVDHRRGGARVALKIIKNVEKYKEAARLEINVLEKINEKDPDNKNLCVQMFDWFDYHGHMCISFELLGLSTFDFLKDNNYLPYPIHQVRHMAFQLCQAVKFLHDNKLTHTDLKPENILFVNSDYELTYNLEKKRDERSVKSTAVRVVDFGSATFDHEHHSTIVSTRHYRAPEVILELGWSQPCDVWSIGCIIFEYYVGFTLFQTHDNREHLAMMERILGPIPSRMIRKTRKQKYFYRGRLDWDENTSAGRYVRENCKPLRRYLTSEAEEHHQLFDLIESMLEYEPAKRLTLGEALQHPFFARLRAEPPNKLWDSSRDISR
SMILES = CCOC(=O)c1c(C)[nH]c(/C=C2\C(=O)Nc3ccccc32)c1C; result = 86%
SMILES = Cn1c2ccccc2c2c3c(c4c5ccccc5n(CCC#N)c4c21)CNC3=O; result = 88.7%
SMILES = O=C(Nc1cccc(Nc2cc(Nc3cccc(C(F)(F)F)c3)ncn2)c1)C1CC1; result = 97.3%
SMILES = Cc1ccc(Nc2nccc(N(C)c3ccc4c(C)n(C)nc4c3)n2)cc1S(N)(=O)=O; result = 90.9%
SMILES = O=C1NC(=O)C(c2cn(CCCn3ccnc3)c3ccccc23)=C1Nc1ccccc1; result = 14.7%
SMILES = Nc1ccc2ncnc(NCCc3ccc(Oc4ccccc4)cc3)c2c1; result = 83%
SMILES = O=C(CCCc1ccc(-c2ccccc2F)cc1)Nc1ccc(O)cc1; result = 103%
SMILES = Cc1cccc(-c2[nH]c(C(C)(C)C)nc2-c2ccc3c(c2)OCO3)n1; result = 95.2%
SMILES = COc1cc2ncnc(Nc3ccc(Oc4ccccc4)cc3)c2cc1OC; result = 103%
SMILES = COc1ccc(OC)c2c(=S)c3ccccc3[nH]c12; result = 81.2%
SMILES = Nc1[nH]nc2nc3ccccc3nc12; result = 96.1%
SMILES = CN(C)c1ccc(C=C2C(=O)Nc3ccccc32)cc1; result = 99.7%
SMILES = N#CC(C#N)=C(N)/C(C#N)=C/c1ccc(O)cc1; result = 100%
SMILES = Cc1nc(-c2ccccc2)c(-c2ccncc2)o1; result = 98.2%

Block 2 — technique: competition with immobilised ligand; tested at: 1 µM; measurement: remaining binding
SMILES: O=C(Nc1cnc(Oc2ccc(F)cc2)nc1)N1CCc2ncccc2[C@@H]1c1ccc(F)cc1
target = Cyclin-G-associated kinase (GAK, Homo sapiens, UniProt O14976); observed = cell-free assay; result = 94%
target = Serine/threonine-protein kinase 38-like (STK38L, Homo sapiens, UniProt Q9Y2H1); observed = cell-free assay; result = 75%
target = Calcium/calmodulin-dependent protein kinase type IV (CAMK4, Homo sapiens, UniProt Q16566); observed = cell-free assay; result = 97%
target = Macrophage colony-stimulating factor 1 receptor, autoinhibited (CSF1R, Homo sapiens, UniProt P07333); observed = cell-free assay; result = 93%
target = Tyrosine-protein kinase Blk (BLK, Homo sapiens, UniProt P51451); observed = cell-free assay; result = 80%
target = Myosin-IIIa (MYO3A, Homo sapiens, UniProt Q8NEV4); observed = binding; result = 100%
target = Receptor-type tyrosine-protein kinase FLT3 (FLT3, Homo sapiens, UniProt P36888, D835V); observed = cell-free assay; result = 100%
target = Inhibitor of nuclear factor kappa-B kinase subunit epsilon (IKBKE, Homo sapiens, UniProt Q14164); observed = cell-free assay; result = 98%
target = Dual specificity protein kinase CLK2 (CLK2, Homo sapiens, UniProt P49760); observed = cell-free assay; result = 100%
target = Serine/threonine-protein kinase Nek6 (NEK6, Homo sapiens, UniProt Q9HC98); observed = cell-free assay; result = 100%
target = cGMP-dependent protein kinase 2 (PRKG2, Homo sapiens, UniProt Q13237); observed = cell-free assay; result = 100%
target = Calcium/calmodulin-dependent protein kinase kinase 2 (CAMKK2, Homo sapiens, UniProt Q96RR4); observed = cell-free assay; result = 93%

Block 3 — technique: RNA Bind-n-Seq; molecule type: RNA; medium: in vitro; tested at: 200 nM; setting: whole 134-nt RNA, ends assumed; together with: 150 mM KCl; baseline: input library; reading: higher = stronger binding; measurement: log2 enrichment
Target: Fragile X messenger ribonucleoprotein 1, C-terminal low-complexity region (Fmr1, Mus musculus, UniProt P35922)
Constant ends, left off below: GGGAGUUCUACAGUCCGACGAUC … UGGAAUUCUCGGGUGUCAAGG
Oligonucleotide = UCAAGUCCUGUGCUACACAUCGUAUGUACCGAAUCGGAGGUUUUUGGUUUUUGGAAAGUAUUAUGUUACGCCGUUCGGAUCUGCACUUCC; result = -0.789
Oligonucleotide = CUGUGCUACACAUCGUAUGUACCGAAUCGGGGUUUUUUGGGUUUUUUGGGGUUUUUUGGGGAAAGUAUUAUGUUACGCCGUUCGGAUCUG; result = -0.148
Oligonucleotide = UGCGGGCCGAGAAUCGGGAGCUGGGCAAACGCGUACAGGCACUGCAGGAGGAGAGUCGCUACCUACGGGCAGUCUUAGCCAACGAGACUG; result = -1.17
Oligonucleotide = AGUCCUGUGCUACACAUCGUAUGUACCGAAUCGGUUUUUGGUUUUUGGGUUUUUGGGAAAGUAUUAUGUUACGCCGUUCGGAUCUGCACU; result = -0.669
Oligonucleotide = CUCAAGUCCUGUGCUACACAUCGUAUGUACCGAAUCGGGGUGGGUGGGUGGGGAAAGUAUUAUGUUACGCCGUUCGGAUCUGCACUUCCA; result = 0.262
Oligonucleotide = UGGAAGGAACGAGCCAGGAAGAGGGACUGGAACCAUCUCAGAAGCCAUGCCCCUCAGGCUGGAACUUGCCCUGUCUCCUCGCAGAUGAGG; result = -1.6
Oligonucleotide = GCAGGAAGUAAUAACAAAUGGAAAUGCUUCGGAUAGUGGCAGGGGUGGGGGUUGCUAAGGAAAGGGUGGGAUGGGAGUGGGUAAAGAGUU; result = 0.42
Oligonucleotide = UGGCCCUGGUGGCAUGCGGGGAGGAAGAGGUGGCCUCAUGGAUCGUGGUGGUCCCGGUGGAAUGUACAGAGGUGGCCGUGGUGGAGACAG; result = 0.0636

Mixed results
Substance = PhoQ, residues 284 288 289 292 302 303 SCKMEA; target = PhoP, residues 12 14 15 18 19 LQHIR (Escherichia coli, UniProt P23836); assay = Sort-seq, item: YFP reporter; test system = E. coli; setting = PhoQ-PhoP variant library, together with: 10 µM Mg2+; scale = baseline: high Mg2+ state, higher = stronger signaling; measurement = fold induction; result = 14.4

Some of these lines once more (block 3):
Oligonucleotide = CUGUGCUACACAUCGUAUGUACCGAAUCGGGGUUUUUUGGGUUUUUUGGGGUUUUUUGGGGAAAGUAUUAUGUUACGCCGUUCGGAUCUG; result = -0.148
Oligonucleotide = UGCGGGCCGAGAAUCGGGAGCUGGGCAAACGCGUACAGGCACUGCAGGAGGAGAGUCGCUACCUACGGGCAGUCUUAGCCAACGAGACUG; result = -1.17
Oligonucleotide = AGUCCUGUGCUACACAUCGUAUGUACCGAAUCGGUUUUUGGUUUUUGGGUUUUUGGGAAAGUAUUAUGUUACGCCGUUCGGAUCUGCACU; result = -0.669
Oligonucleotide = CUCAAGUCCUGUGCUACACAUCGUAUGUACCGAAUCGGGGUGGGUGGGUGGGGAAAGUAUUAUGUUACGCCGUUCGGAUCUGCACUUCCA; result = 0.262
Oligonucleotide = UGGAAGGAACGAGCCAGGAAGAGGGACUGGAACCAUCUCAGAAGCCAUGCCCCUCAGGCUGGAACUUGCCCUGUCUCCUCGCAGAUGAGG; result = -1.6
Oligonucleotide = GCAGGAAGUAAUAACAAAUGGAAAUGCUUCGGAUAGUGGCAGGGGUGGGGGUUGCUAAGGAAAGGGUGGGAUGGGAGUGGGUAAAGAGUU; result = 0.42
